Measurements pooled from the literature.
Each line is one published result; not all experiments were run side by side.
CTSL: Procathepsin L (CTSL, Homo sapiens, UniProt P07711)
UniProt P07711, sequence (whole entry, looked up): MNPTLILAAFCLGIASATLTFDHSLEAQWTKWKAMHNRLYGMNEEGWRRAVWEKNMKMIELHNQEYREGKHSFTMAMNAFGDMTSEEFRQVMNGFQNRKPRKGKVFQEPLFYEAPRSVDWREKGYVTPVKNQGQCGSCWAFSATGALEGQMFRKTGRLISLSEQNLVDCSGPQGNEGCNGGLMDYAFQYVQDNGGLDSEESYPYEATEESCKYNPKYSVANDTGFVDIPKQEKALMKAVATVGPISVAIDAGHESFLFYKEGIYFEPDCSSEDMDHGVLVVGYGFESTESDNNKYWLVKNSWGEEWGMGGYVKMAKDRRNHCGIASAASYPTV
GSK3B: Glycogen synthase kinase-3 beta (GSK3B, Homo sapiens, UniProt P49841)
UniProt P49841, sequence (whole entry, looked up): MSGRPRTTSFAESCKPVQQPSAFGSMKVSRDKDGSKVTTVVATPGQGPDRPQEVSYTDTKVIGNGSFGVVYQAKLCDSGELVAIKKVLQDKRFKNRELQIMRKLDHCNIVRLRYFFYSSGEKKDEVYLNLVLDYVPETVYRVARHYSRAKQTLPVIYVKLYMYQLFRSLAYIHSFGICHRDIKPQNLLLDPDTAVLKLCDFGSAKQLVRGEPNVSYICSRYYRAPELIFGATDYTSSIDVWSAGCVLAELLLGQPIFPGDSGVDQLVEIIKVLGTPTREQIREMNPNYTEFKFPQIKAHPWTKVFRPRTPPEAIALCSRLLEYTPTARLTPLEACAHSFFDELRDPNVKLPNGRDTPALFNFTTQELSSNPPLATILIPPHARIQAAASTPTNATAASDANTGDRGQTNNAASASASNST
Transmembrane protease serine 6: Transmembrane protease serine 6 (Homo sapiens, UniProt Q8IU80)
UniProt Q8IU80, sequence (whole entry, looked up): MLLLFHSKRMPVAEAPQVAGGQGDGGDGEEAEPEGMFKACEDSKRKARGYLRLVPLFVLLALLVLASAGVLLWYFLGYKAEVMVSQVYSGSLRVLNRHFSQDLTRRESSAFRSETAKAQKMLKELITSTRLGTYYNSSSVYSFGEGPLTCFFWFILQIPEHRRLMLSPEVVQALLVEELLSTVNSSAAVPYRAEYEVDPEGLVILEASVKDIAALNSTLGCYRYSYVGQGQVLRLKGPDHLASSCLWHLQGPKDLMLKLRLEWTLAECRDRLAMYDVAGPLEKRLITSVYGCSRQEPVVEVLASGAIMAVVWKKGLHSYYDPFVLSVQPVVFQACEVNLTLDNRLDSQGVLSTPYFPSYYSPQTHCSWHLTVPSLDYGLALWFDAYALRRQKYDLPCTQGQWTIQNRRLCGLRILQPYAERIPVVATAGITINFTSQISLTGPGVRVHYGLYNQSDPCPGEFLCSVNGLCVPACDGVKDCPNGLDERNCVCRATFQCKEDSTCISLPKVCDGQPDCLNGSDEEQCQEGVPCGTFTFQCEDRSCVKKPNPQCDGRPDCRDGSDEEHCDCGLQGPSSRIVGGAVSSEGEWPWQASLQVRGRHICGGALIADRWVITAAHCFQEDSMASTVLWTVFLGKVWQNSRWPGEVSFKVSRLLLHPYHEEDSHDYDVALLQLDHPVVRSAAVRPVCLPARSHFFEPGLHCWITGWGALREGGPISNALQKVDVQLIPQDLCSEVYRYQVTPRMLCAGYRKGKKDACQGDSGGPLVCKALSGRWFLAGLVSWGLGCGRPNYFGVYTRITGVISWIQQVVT
MPO: Myeloperoxidase (MPO, Homo sapiens, UniProt P05164)
UniProt P05164, sequence (whole entry, looked up): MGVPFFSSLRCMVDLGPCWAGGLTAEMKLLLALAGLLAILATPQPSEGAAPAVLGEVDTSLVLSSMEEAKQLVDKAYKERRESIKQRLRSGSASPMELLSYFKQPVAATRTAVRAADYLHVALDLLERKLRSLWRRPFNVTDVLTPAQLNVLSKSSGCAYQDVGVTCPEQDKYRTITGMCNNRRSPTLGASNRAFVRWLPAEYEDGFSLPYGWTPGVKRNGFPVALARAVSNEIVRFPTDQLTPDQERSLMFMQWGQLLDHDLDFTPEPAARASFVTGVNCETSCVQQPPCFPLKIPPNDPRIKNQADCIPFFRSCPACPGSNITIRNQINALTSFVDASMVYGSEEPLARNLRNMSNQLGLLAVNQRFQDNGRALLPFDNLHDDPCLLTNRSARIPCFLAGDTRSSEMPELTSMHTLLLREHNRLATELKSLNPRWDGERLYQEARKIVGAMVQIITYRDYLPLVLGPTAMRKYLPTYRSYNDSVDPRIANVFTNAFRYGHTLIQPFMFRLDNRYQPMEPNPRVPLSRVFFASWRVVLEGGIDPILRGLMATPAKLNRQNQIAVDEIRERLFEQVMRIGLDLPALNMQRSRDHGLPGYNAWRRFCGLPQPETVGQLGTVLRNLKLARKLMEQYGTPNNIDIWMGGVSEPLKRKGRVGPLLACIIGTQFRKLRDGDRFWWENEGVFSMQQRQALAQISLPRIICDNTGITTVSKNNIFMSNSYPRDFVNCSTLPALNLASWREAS
ST14: Suppressor of tumorigenicity 14 protein (ST14, Homo sapiens, UniProt Q9Y5Y6)
UniProt Q9Y5Y6, sequence (whole entry, looked up): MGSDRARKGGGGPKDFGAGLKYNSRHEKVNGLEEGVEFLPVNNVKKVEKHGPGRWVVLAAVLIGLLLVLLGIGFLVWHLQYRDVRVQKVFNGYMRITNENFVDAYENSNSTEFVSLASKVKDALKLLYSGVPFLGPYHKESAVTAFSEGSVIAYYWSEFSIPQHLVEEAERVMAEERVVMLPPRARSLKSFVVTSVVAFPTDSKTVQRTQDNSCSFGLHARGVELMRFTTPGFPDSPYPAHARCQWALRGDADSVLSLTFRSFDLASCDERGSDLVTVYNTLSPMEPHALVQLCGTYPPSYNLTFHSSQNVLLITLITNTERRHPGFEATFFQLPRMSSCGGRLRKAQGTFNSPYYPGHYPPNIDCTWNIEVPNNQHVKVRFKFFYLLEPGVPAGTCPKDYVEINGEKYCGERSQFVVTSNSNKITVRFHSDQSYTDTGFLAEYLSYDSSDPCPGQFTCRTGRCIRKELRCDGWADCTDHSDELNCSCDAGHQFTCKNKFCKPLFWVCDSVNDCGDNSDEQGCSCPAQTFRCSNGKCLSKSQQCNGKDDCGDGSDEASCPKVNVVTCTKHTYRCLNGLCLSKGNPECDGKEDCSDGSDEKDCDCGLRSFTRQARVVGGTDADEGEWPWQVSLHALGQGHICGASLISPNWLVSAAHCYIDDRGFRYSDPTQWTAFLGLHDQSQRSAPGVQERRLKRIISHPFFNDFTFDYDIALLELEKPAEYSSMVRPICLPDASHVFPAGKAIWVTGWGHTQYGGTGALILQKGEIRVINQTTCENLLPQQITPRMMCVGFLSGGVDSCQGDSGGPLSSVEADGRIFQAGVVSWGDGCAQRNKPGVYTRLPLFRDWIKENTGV
UniProt P04629, sequence (whole entry, looked up): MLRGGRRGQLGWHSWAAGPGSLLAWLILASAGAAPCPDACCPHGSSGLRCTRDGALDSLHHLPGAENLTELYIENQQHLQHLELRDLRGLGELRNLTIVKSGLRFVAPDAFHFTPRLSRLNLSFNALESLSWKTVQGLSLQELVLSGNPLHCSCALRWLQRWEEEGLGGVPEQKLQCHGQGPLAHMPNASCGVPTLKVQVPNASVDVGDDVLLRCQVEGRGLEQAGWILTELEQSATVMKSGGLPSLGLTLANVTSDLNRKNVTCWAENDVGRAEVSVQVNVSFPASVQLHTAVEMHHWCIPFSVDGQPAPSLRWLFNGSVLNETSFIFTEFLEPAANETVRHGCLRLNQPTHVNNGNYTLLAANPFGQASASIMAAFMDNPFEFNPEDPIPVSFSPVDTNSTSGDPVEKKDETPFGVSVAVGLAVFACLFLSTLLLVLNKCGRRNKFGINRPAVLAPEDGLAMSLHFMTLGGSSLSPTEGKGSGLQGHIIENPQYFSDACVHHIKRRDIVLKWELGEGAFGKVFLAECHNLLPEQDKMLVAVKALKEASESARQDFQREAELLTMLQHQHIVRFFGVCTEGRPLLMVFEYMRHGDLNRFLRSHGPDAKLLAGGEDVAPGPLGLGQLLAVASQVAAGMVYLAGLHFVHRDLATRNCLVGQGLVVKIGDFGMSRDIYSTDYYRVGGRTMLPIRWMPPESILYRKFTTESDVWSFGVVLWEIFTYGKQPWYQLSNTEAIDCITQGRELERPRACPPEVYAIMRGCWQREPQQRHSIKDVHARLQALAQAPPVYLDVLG
UniProt Q9NYA1, sequence (whole entry, looked up): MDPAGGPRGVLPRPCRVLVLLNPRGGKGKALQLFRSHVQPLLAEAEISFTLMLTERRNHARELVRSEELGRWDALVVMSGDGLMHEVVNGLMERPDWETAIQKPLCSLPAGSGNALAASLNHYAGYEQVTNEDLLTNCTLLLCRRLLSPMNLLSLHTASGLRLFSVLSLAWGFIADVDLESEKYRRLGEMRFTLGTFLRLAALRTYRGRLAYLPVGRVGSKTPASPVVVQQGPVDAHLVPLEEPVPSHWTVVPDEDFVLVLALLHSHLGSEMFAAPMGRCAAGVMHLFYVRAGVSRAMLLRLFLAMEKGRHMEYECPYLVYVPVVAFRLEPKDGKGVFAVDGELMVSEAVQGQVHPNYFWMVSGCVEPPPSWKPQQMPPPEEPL
UniProt Q9Y6E0, sequence (whole entry, looked up): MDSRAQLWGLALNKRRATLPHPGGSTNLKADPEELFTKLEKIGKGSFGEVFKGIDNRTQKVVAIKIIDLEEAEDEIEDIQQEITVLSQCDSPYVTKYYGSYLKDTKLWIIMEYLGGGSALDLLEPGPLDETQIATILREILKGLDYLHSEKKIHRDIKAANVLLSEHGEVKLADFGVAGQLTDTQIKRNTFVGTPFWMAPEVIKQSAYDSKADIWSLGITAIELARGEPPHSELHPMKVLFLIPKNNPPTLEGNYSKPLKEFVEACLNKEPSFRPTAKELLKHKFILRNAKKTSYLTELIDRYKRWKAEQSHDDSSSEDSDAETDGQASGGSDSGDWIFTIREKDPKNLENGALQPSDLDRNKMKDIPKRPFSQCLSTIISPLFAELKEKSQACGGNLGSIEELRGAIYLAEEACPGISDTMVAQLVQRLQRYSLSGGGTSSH

Cc1ccc(C[C@H](NC(=O)OC(C)(C)C)C(=O)NC/C=C/S(=O)(=O)c2ccccc2)cc1 has a remaining activity of less than 1% (Rhodesain (rhodesain, Trypanosoma brucei rhodesiense, UniProt Q95PM0); enzyme activity, inhibitor, fluorescence; 5 µM).
CNc1ncc2c(/C=C/C(=O)N3CCC(OC)CC3)nn(Cc3cccc(C(F)(F)F)c3)c2n1 gave a remaining activity of 105% (Activin receptor type-1B (ACVR1B, Homo sapiens, UniProt P36896); enzyme activity, inhibitor, radiometric; 1 µM).
For O=C1Nc2cc(O)ccc2C1=O, the remaining activity was 83.7% (CTSL; enzyme activity, inhibitor; 100 µM).
The inhibition of CCN(O)N=Nc1ccc(S(=O)(=O)Nc2onc(C)c2C)cc1 is reported as 13.9% (ABTS scavenging; 20 µg/mL).
With COc1cccc(-c2n[nH]c(SCc3ccccn3)n2)c1OC the concentration was 10900 ng/mL (male Sprague-Dawley rat, plasma; intravenous, 1 mg/kg, 1.98 min, single dose).
For Cc1cc(Oc2ncccc2CN2CCN(c3ccccc3C#N)CC2)ccc1-c1c(C)c(=O)[nH]c(=O)n1C, the Ki was 206 nM (Alpha-2B adrenergic receptor (ADRA2B, Homo sapiens, UniProt P18089); ligand displacement, radioligand).
For C=CC(=O)N1CCC(COCC(=O)N2CCN(c3nc(-c4cnc(N)nc4C(F)F)nc(N4CCOC[C@@H]4C)n3)CC2)CC1, the remaining binding was 59% (High affinity nerve growth factor receptor (NTRK1, Homo sapiens, UniProt P04629); binding, competition with immobilised ligand; 1 µM).
The remaining activity of CC[C@H](C)[C@H](NC(=O)[C@H](CCC(N)=O)NC(=O)[C@H](CC(C)C)NC(=O)[C@H](CCSC)NC(=O)[C@H](CCCCN)NC(=O)[C@H](CO)NC(=O)[C@H](CO)NC(=O)[C@H](CCSC)NC(=O)[C@H](CC(C)C)NC(=O)[C@H](CC(N)=O)NC(=O)[C@@H](NC(=O)[C@@H](NC(=O)[C@H](CO)NC(=O)[C@H](CC(C)C)NC(=O)[C@H](CS)NC(=O)[C@H](CCCNC(=N)N)NC(=O)[C@H](CC(=O)O)NC(=O)[C@H](Cc1c[nH]c2ccccc12)NC(=O)[C@H](Cc1ccccc1)NC(=O)[C@H](C)NC(=O)[C@H](CCC(=O)O)NC(=O)[C@@H](N)CCCCN)C(C)C)[C@@H](C)CC)C(=O)N[C@@H](CC(N)=O)C(=O)N[C@@H](C)C(=O)O is reported as 108% (GSK3B; enzyme activity, inhibitor, radiometric; 100 µM, 20 min).
N=C(N)NCCC[C@H](NC(=O)[C@H](Cc1ccccc1)NC(=O)[C@H](Cc1cscn1)NC(=O)CCc1ccccc1)C(=O)c1nc2ccccc2s1 gave a remaining activity of 2% (Transmembrane protease serine 6; enzyme activity, inhibitor; 0.1 µM).
Cc1cc([C@@H](C)Nc2ccccc2C(=O)O)c2nc(N3CCC(F)(F)CC3)c(C#N)c(=O)n2c1 gave a remaining activity of 124% (Sphingosine kinase 1 (SPHK1, Homo sapiens, UniProt Q9NYA1); enzyme activity, inhibitor, ADP detection; 10 µM).
CS(=O)(=O)c1ccccc1Nc1nc(Nc2ccnc(CO)c2)ncc1Cl gave a remaining activity of 18.9% (Tyrosine-protein kinase Lck (LCK, Homo sapiens, UniProt P06239); enzyme activity, inhibitor; 1 µM).
Cc1cc(Oc2ncccc2CN2CCN(c3cccc(Cl)c3)CC2)ccc1-c1c(C)c(=O)[nH]c(=O)n1C gave a Ki of 1440 nM (Alpha-1A adrenergic receptor (ADRA1A, Homo sapiens, UniProt P35348); ligand displacement, radioligand).
For CSCC[C@H](NC(=O)[C@H](Cc1ccccc1)NC(=O)[C@H](Cc1c[nH]cn1)NC(=O)CNC(=O)[C@@H](NC(=O)[C@H](C)NC(=O)[C@H](Cc1c[nH]c2ccccc12)NC(=O)[C@H](CCC(N)=O)NC(=O)[C@@H]1CCC(=O)N1)C(C)C)C(N)=O, the remaining activity was 53.2% (CTSL; enzyme activity, inhibitor; 100 µM).
For CC[C@H](C)[C@H](NC(=O)[C@H](CCC(N)=O)NC(=O)[C@@H](NC(=O)[C@H](CCSC)NC(=O)[C@H](CCCCN)NC(=O)[C@H](CO)NC(=O)[C@@H](NC(=O)[C@H](CCSC)NC(=O)[C@H](CC(C)C)NC(=O)[C@H](CC(N)=O)NC(=O)[C@@H](NC(=O)[C@@H](NC(=O)[C@H](CO)NC(=O)[C@H](CC(C)C)NC(=O)[C@H](C)NC(=O)[C@H](CCCNC(=N)N)NC(=O)[C@H](CCC(=O)O)NC(=O)[C@H](Cc1ccc(O)cc1)NC(=O)[C@H](Cc1ccccc1)NC(=O)[C@H](C)NC(=O)[C@H](CC(N)=O)NC(=O)[C@@H](N)CCCCN)[C@@H](C)CC)[C@@H](C)CC)[C@@H](C)O)C(C)C)C(=O)N[C@@H](CC(N)=O)C(=O)N[C@H](C(=O)O)C(C)C, the remaining activity was 103% (GSK3B; enzyme activity, inhibitor, radiometric; 10 µM, 20 min).
NC/C(=C\F)COc1cccc(Cn2c(=S)[nH]c(=O)c3[nH]cnc32)c1 gave a remaining activity of 50.4% (MPO; enzyme activity, inhibitor; 83 nM).
For O=C1c2c(O)cc(O)cc2O[C@H](c2ccc(O)cc2)[C@H]1O, the remaining activity was 147% (CTSL; enzyme activity, inhibitor; 100 µM).
The remaining activity of N=C(N)NCCC[C@H](NC(=O)[C@H](Cc1ccc(OCc2ccccc2)cc1)NC(=O)[C@H](Cc1cscn1)NC(=O)CCc1ccccc1)C(=O)c1nc2ccccc2s1 is reported as 17% (ST14; enzyme activity, inhibitor; 0.1 µM).
NC(=O)C(=O)c1c[nH]c2ccccc12 gave a remaining activity of 91.1% (CTSL; enzyme activity, inhibitor; 100 µM).
CC[C@H](C)[C@H](NC(=O)[C@H](Cc1cscn1)NC(=O)CCc1ccccc1)C(=O)N[C@@H](CCCNC(=N)N)C(=O)c1nc2ccccc2s1 has a remaining activity of 2% (Transmembrane protease serine 6; enzyme activity, inhibitor; 0.1 µM).
For Cc1ccc(N(O)N=Nc2ccc(S(=O)(=O)Nc3cc(C)on3)cc2)cc1, the inhibition was 27.7% (ABTS scavenging; 60 µg/mL).
With Cc1ccc(C=O)c(O)c1 the remaining activity was 151% (CTSL; enzyme activity, inhibitor; 100 µM).
The remaining activity of CC(C)OCCn1c(=S)[nH]c(=O)c2[nH]ccc21 is reported as 90.6% (MPO; enzyme activity, inhibitor; 0.226 µM).
The remaining activity of COc1cc(-c2cncc3c2CN(C)Cc2cc(N4CCNCC4)ccc2-3)cc(OC)c1OC is reported as 112% (Serine/threonine-protein kinase 24 (STK24, Homo sapiens, UniProt Q9Y6E0); enzyme activity, inhibitor; 1 µM).
C=CCS[S+]([O-])CC=C (stereo not shown) gave a remaining activity of 101% (CTSL; enzyme activity, inhibitor; 100 µM).
For N=C(N)NCCC[C@H](NC(=O)[C@H](CC1CCCCC1)NC(=O)[C@H](Cc1cscn1)NC(=O)CCc1ccccc1)C(=O)c1nc2ccccc2s1, the remaining activity was 10% (ST14; enzyme activity, inhibitor; 0.1 µM).

Repeated from above:
The remaining activity of CC(C)OCCn1c(=S)[nH]c(=O)c2[nH]ccc21 is reported as 90.6% (MPO; enzyme activity, inhibitor; 0.226 µM).
